Measured values gathered from unrelated publications.
Compare with care: the assays were run in different laboratories. Values joined by “and” are separate records of one study, mostly repeats; a detail may differ.

Substance	tested on	assay	test system	setting	measurement	value
US6/Ighm gD (Herpes simplex virus-2/Mus musculus)	itself	SEC			subunits per oligomer	15.2
NP (UniProt P03466)	itself	negative-stain electron microscopy			subunits per oligomer	6 protomers per ring and 4 protomers per ring and 7 protomers per ring
HA H10N8, HA1/HA2 (influenza A virus A/Jiangxi-Donghu/346/2013)	itself	crystal structure			subunits per oligomer	3
S ectodomain, GCN4 trimerization motif R717S (Murine hepatitis virus)	itself	SEC-MALS			subunits per oligomer	3
comFB (Vibrio cholerae)	itself	mass photometry		added: c-di-GMP 0.5 mM	subunits per oligomer	2
HA soluble ectodomain, foldon (influenza A virus H3N2)	itself	SEC			subunits per oligomer	3
HA HA2  ectodomain (Influenza A virus H3N2)	itself	native gel			subunits per oligomer	3
PDCoV spike ectodomain trimer ectodomain (porcine deltacoronavirus)	itself	cryo-EM			subunits per oligomer	3
HA ectodomain (influenza A H1N1 A/Michigan/45/2015)	itself	cryo-EM			subunits per oligomer	3
HA H6N1 mature, HA1/HA2 (influenza A virus A/Taiwan/2/2013)	itself	crystal structure			subunits per oligomer	3
HA soluble ectodomain, foldon (influenza B virus)	itself	SEC			subunits per oligomer	3
PR2 mature protease D25N (HIV-2)	itself	SEC-MALS			subunits per oligomer	2
F ectodomain (Hendra virus)	itself	cryo-EM			subunits per oligomer	6
RSV F/foldon soluble ectodomain F488W (respiratory syncytial virus)	itself	SEC			subunits per oligomer	3
HA ectodomain (influenza A virus H5N8)	itself	cryo-EM			subunits per oligomer	6
L/P L1-P4 complex (Borna disease virus 1)	itself	SEC			subunits per oligomer	2
integrase mature (HIV-1)	itself	negative stain electron microscopy			subunits per oligomer	16
NP (influenza A virus)	itself	SEC			subunits per oligomer	3
neuraminidase N2 ectodomain tetramer (influenza A virus H3N2 A/Switzerland/9715293/2013)	itself	cryo-EM			subunits per oligomer	4
IGINITRFQTLLALH	human CD4 T cells	AIM	peptide		responding donors	9%
gp41 with full IL linker (HIV-1)	itself	AUC		pH 4.0	subunits per oligomer	3
IDAYPLTKHPNQEYA	human CD4 T cells	AIM	peptide		responding donors	14%
MPER/GlpF (HIV-1/Escherichia coli)	itself	negative stain EM			subunits per oligomer	4
env gp41 postfusion six-helix bundle (HIV-1)	itself	crystal structure			subunits per oligomer	3

Excerpt of the above:
Substance	tested on	assay	test system	setting	measurement	value
IGINITRFQTLLALH	human CD4 T cells	AIM	peptide		responding donors	9%
NP (UniProt P03466)	itself	negative-stain electron microscopy			subunits per oligomer	6 protomers per ring and 4 protomers per ring and 7 protomers per ring
HA ectodomain (influenza A virus H5N8)	itself	cryo-EM			subunits per oligomer	6
